Published values pooled from the literature.
Numbered parts are unrelated; each lists some results of a single study.
Chain of UniProt O95747 (whole entry, looked up): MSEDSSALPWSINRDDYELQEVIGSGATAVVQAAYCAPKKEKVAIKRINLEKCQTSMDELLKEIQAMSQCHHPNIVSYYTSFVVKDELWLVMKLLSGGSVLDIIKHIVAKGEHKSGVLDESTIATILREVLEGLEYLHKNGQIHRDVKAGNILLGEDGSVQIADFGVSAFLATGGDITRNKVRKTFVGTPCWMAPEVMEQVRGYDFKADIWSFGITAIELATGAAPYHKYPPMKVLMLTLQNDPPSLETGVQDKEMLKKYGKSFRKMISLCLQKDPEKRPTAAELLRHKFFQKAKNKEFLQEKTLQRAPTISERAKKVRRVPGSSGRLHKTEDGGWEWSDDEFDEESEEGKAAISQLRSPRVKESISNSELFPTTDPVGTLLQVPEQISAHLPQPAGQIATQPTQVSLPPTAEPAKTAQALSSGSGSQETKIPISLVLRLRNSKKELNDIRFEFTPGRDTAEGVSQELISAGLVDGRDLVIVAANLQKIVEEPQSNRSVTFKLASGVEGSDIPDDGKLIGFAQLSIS
Chain of UniProt P28566 (whole entry, looked up): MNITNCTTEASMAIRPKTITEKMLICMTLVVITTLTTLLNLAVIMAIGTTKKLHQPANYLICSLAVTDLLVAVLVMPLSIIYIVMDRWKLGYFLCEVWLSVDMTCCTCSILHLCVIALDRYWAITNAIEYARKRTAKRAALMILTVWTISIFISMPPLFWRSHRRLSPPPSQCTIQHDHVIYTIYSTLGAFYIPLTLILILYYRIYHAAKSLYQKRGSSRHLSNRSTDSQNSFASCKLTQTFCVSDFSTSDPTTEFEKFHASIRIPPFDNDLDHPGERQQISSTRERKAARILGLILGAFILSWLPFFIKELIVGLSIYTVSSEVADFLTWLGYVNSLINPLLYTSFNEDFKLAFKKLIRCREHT
Chain of UniProt Q6ZWH5 (whole entry, looked up): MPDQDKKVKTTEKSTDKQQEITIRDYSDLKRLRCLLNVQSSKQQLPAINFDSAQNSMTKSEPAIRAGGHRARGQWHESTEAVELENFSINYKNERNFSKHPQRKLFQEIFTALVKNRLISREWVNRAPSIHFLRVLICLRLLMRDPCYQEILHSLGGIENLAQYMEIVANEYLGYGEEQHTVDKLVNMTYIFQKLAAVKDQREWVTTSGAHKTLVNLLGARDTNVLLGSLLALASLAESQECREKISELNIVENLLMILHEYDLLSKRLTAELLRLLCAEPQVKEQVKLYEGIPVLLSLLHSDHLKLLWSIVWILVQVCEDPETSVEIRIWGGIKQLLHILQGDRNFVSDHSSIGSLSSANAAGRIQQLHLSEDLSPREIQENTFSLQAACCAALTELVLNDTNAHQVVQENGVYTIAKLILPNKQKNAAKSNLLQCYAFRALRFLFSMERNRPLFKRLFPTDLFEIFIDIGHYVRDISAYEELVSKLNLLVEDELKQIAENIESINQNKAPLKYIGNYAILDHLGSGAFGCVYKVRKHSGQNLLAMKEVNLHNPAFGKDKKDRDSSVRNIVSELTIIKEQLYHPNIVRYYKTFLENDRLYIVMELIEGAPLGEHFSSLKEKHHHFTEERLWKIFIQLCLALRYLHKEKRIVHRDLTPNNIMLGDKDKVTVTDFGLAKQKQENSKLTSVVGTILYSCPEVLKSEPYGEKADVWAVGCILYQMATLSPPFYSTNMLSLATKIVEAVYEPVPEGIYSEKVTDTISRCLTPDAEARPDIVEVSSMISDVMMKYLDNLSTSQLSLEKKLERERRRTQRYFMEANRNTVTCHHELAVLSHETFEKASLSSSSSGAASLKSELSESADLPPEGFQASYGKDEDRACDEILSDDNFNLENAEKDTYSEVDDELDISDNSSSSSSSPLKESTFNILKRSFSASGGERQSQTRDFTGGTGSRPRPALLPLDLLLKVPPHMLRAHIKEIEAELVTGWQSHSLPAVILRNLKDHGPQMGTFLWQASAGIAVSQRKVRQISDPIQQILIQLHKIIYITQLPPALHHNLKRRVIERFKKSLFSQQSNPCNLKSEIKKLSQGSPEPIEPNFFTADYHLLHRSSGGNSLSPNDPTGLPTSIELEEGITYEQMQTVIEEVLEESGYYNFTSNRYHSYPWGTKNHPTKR
Chain of UniProt Q12866 (whole entry, looked up): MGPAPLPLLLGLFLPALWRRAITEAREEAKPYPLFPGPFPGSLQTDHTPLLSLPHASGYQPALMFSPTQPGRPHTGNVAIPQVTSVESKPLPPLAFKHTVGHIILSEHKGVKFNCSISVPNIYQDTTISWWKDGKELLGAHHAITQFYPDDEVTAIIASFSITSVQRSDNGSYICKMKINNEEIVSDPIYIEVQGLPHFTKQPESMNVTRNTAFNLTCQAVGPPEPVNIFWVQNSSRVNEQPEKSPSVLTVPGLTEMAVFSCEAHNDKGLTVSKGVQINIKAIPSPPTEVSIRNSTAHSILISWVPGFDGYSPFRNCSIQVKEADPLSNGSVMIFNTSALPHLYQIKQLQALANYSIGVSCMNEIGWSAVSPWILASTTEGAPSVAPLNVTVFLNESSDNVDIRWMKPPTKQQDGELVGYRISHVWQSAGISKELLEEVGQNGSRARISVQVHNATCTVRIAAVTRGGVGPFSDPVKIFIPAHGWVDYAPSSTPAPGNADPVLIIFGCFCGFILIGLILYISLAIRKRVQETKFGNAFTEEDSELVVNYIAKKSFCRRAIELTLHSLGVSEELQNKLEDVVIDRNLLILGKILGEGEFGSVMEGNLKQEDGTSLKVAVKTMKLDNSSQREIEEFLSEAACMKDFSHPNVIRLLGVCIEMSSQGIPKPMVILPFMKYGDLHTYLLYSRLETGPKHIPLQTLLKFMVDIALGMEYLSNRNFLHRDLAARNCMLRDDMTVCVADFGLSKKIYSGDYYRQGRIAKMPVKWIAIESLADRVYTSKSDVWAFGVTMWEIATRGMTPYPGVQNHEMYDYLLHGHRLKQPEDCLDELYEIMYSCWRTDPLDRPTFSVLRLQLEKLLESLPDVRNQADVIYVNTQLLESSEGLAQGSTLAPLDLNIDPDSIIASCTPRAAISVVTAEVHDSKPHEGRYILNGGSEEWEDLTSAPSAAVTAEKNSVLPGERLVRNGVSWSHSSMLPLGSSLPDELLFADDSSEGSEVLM
Chain of UniProt Q8WTQ7 (whole entry, looked up): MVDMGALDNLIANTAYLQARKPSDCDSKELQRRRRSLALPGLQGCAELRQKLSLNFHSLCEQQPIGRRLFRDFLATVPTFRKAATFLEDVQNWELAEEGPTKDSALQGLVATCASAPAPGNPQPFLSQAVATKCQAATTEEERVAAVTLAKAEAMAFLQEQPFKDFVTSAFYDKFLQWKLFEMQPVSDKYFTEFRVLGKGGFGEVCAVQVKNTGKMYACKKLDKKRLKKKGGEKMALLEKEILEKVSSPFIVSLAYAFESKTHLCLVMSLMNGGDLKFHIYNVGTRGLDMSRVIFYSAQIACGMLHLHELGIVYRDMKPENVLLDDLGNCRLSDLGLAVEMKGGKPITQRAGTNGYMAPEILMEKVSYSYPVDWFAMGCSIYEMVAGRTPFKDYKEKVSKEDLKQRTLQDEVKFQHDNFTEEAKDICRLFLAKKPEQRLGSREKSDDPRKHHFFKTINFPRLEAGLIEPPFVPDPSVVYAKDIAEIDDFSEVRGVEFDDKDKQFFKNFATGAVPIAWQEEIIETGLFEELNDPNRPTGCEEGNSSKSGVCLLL
Chain of UniProt Q9BQI3 (whole entry, looked up): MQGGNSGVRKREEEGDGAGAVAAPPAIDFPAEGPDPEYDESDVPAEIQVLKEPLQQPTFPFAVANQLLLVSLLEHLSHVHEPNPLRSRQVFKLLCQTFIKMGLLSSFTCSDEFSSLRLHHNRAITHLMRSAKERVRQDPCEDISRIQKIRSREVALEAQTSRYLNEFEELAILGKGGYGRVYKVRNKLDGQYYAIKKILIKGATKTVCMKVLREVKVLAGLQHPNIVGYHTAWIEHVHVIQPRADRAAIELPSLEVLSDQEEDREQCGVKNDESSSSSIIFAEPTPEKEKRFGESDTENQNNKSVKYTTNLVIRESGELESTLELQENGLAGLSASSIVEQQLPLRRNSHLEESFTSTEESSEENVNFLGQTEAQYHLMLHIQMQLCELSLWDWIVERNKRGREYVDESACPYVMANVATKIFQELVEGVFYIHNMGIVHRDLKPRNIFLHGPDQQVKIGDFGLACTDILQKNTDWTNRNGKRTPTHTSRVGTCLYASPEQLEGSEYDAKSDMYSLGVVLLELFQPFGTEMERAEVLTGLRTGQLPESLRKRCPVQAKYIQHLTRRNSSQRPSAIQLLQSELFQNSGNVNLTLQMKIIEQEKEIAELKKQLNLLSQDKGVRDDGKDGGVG
Chain of UniProt P30872 (whole entry, looked up): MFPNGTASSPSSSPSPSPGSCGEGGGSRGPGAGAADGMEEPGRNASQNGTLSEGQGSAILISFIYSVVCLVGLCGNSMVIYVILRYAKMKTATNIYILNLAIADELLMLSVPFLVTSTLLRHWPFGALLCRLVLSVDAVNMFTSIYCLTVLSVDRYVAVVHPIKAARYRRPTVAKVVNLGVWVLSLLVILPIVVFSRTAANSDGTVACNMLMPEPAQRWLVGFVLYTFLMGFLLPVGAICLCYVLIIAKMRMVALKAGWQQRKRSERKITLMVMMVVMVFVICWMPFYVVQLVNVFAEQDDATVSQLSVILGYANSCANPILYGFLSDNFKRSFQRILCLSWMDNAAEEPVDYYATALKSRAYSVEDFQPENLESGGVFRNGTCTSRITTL
Chain of UniProt Q16816 (whole entry, looked up): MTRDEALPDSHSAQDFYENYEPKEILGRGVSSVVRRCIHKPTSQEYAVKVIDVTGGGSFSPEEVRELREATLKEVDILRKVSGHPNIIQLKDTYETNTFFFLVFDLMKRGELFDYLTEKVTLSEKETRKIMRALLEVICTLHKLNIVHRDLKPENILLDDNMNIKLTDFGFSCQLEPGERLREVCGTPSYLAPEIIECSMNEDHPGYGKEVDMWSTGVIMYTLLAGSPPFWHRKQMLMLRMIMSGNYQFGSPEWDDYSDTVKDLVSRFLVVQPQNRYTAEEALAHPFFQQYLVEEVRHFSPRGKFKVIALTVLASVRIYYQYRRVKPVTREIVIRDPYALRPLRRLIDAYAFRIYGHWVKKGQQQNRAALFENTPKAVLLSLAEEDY

Set 1
Medium: hydrocarbon/water
pH: 7.4
Measurement: logD
SMILES = CCCCCN1CC(=O)N[C@@H](C)C(=O)N2CCC[C@@H]2C(=O)N(C)[C@@H](CC(C)C)C(=O)N[C@@H](C)C(=O)N(Cc2ccc3c(c2)OCO3)CC(=O)N[C@@H](CC(C)C)C(=O)N2CCC[C@@H]2C(=O)N(C)[C@@H](CC(C)C)C(=O)N[C@@H](C)C1=O; value = 1.91
SMILES = CCCCCN1CC(=O)NC(CC(C)C)C(=O)N(C)C(C)C(=O)NC(Cc2ccccc2)C(=O)N2CCCC2C(=O)N(CC)CC(=O)NC(CC(C)C)C(=O)N(C)C(C)C(=O)NC(CC(C)C)C(=O)N2CCCC2C1=O (centres unmarked); value = ≥ 3.4
SMILES = CCN1CC(=O)NC(CC(C)C)C(=O)N(C)C(C)C(=O)NC(CC(C)C)C(=O)N2CCCC2C(=O)N(CC2CCOCC2)CC(=O)NC(CC(C)C)C(=O)N(C)C(C)C(=O)NC(Cc2ccccc2)C(=O)N2CCCC2C1=O (centres unmarked); value = 1.96
SMILES = CCN1CC(=O)NC(CC(C)C)C(=O)N(C)C(C)C(=O)NC(CC(C)C)C(=O)N2CCCC2C(=O)N(CC2CCOCC2)CC(=O)NC(CC(C)C)C(=O)N(C)C(C)C(=O)NC(C)C(=O)N2CCCC2C1=O (centres unmarked); value = 0.441
SMILES = CC(C)C[C@@H]1NC(=O)CN(Cc2ccc3c(c2)OCO3)C(=O)[C@H](C)NC(=O)[C@H](CC(C)C)N(C)C(=O)[C@H]2CCCN2C(=O)[C@H](C)NC(=O)CN(CC2CCOCC2)C(=O)[C@H](C)NC(=O)[C@H](CC(C)C)N(C)C(=O)[C@H]2CCCN2C1=O; value = 0.159
SMILES = CC[C@H]1NC(=O)[C@H](CC(C)C)NC(=O)[C@H](Cc2ccccc2)NC(=O)[C@H]2CCCN2C(=O)[C@H](CC2CCCCC2)NC(=O)[C@H](CC2CCCCC2)NC1=O; value = 2.79
SMILES = CCC[C@H]1C(=O)N[C@@H](CC2CCCCC2)C(=O)N(C)[C@@H](C)C(=O)N[C@@H](CC(C)C)C(=O)N(C)Cc2cn(nn2)CC(=O)N[C@@H](CC(C)C)C(=O)N(C)[C@@H](C)C(=O)N[C@@H](CC(C)C)C(=O)N2CCC[C@@H]2C(=O)N1C; value = 1.83
SMILES = CC(C)C[C@@H]1NC(=O)[C@H](Cc2ccccc2)N(C)C(=O)[C@H]2CCCN2C(=O)[C@H](CC(C)C)NC(=O)[C@H](C)N(C)C(=O)[C@@H](CC(C)C)N(C)C1=O; value = 3.45
SMILES = CC(C)C[C@@H]1NC(=O)CN(CCCOC(C)C)C(=O)[C@H](C)NC(=O)[C@H](CC(C)C)N(C)C(=O)[C@H]2CCCN2C(=O)[C@H](Cc2ccccc2)NC(=O)CN(CC2CCOCC2)C(=O)[C@H](C)NC(=O)[C@H](CC(C)C)N(C)C(=O)[C@H]2CCCN2C1=O; value = 1.26
SMILES = CCC[C@@H]1NC(=O)CN(CCC)C(=O)[C@H](CC(C)C)NC(=O)Cn2cc(nn2)CN(C)C(=O)[C@H](CC(C)C)NC(=O)[C@H](C)N(C)C(=O)[C@H](CC)NC(=O)[C@H](C)N(C)C(=O)[C@H]2CCCN2C1=O; value = -2.11

Set 2
SMILES: Cc1cn(-c2cc(NC(=O)c3ccc(C)c(Nc4nccc(-c5cccnc5)n4)c3)cc(C(F)(F)F)c2)cn1
Observed: enzyme activity
Action: inhibitor
Concentration: 0.5 µM
Baseline: control
Measurement: remaining activity
target = EPHA3 (Homo sapiens, UniProt P29320); value = 40.8%
target = NEK1 (Homo sapiens, UniProt Q96PY6); value = 75%
target = MAP3K14 (Homo sapiens, UniProt Q99558); value = 113%
target = TAOK2 (Homo sapiens, UniProt Q9UL54); value = 85.2%
target = TBK1 (Homo sapiens, UniProt Q9UHD2); value = 103%
target = ULK2 (Homo sapiens, UniProt Q8IYT8); value = 104%
target = MERTK (Homo sapiens, UniProt Q12866); value = 96.4%
target = ARAF (Homo sapiens, UniProt P10398); value = 77.3%
target = CSNK1G2 (Homo sapiens, UniProt P78368); value = 97.3%
target = CSNK1G3 (Homo sapiens, UniProt Q9Y6M4); value = 101%
target = GRK7 (Homo sapiens, UniProt Q8WTQ7); value = 99.8%
target = NEK6 (Homo sapiens, UniProt Q9HC98); value = 93.6%
target = MAPK3 (Homo sapiens, UniProt P27361); value = 105%
target = GSK3B (Homo sapiens, UniProt P49841); value = 93.7%

Set 3
SMILES: N=C(N)NC(=O)c1cnn(-c2cccc3ncccc23)c1C1CC1
Observed: β-arrestin recruitment
Action: agonist
Technique: PRESTO-Tango
Concentration: 10 µM
Baseline: untreated
Measurement: fold over basal
target = CXCR5 (Homo sapiens, UniProt P32302); value = 0.83
target = GLP2R (Homo sapiens, UniProt O95838); value = 0.58 fold
target = GPR37L1 (Homo sapiens, UniProt O60883); value = 1.04
target = SSTR1 (Homo sapiens, UniProt P30872); value = 1.01
target = OPRK1 (Homo sapiens, UniProt P41145); value = 1.72 fold
target = G-protein coupled receptor 157 (GPR157, Homo sapiens, UniProt Q5UAW9); value = 0.83
target = CXCR4 (Homo sapiens, UniProt P61073); value = 0.64
target = AVPR1B (Homo sapiens, UniProt P47901); value = 0.7
target = HTR1E (Homo sapiens, UniProt P28566); value = 1.14
target = HTR6 (Homo sapiens, UniProt P50406); value = 0.65

Set 4
SMILES: CCC(=O)N[C@H]1CC[C@@H](C(=O)N(C)c2ccc(-c3nc4ccccc4o3)cc2)C1
Observed: cell-free assay
Technique: competition with immobilised ligand
Concentration: 1 µM
Measurement: remaining binding
target = HIPK4 (Homo sapiens, UniProt Q8NE63); value = 100%
target = PAK5 (Homo sapiens, UniProt Q9P286); value = 100%
target = ACVR2B (Homo sapiens, UniProt Q13705); value = 100%
target = HASPIN (Homo sapiens, UniProt Q8TF76); value = 100%
target = Ribosomal protein S6 kinase alpha-6, C-terminal kinase domain (RPS6KA6, Homo sapiens, UniProt Q9UK32); value = 92%
target = Non-receptor tyrosine-protein kinase TYK2, JH2 (TYK2, Homo sapiens, UniProt P29597); value = 95%
target = PHKG1 (Homo sapiens, UniProt Q16816); value = 100%
target = OXSR1 (Homo sapiens, UniProt O95747); value = 83%
target = EIF2AK1 (Homo sapiens, UniProt Q9BQI3); value = 93%
target = NEK10 (Homo sapiens, UniProt Q6ZWH5); value = 80%
target = MAP3K19 (Homo sapiens, UniProt Q56UN5); value = 69%
target = Ribosomal protein S6 kinase alpha-3, C-terminal kinase domain (RPS6KA3, Homo sapiens, UniProt P51812); value = 87%
target = PTK2 (Homo sapiens, UniProt Q05397); value = 100%
target = BMP2K (Homo sapiens, UniProt Q9NSY1); value = 91%
target = FLT3 (Homo sapiens, UniProt P36888, D835V/ITD); value = 100%
target = MAP3K15 (Homo sapiens, UniProt Q6ZN16); value = 100%
